Assay results collected from several papers.
Numbered parts are unrelated; each lists some results of a single study. Substitutions count along the parent as printed.
Chain of UniProt P08588 (whole entry, looked up): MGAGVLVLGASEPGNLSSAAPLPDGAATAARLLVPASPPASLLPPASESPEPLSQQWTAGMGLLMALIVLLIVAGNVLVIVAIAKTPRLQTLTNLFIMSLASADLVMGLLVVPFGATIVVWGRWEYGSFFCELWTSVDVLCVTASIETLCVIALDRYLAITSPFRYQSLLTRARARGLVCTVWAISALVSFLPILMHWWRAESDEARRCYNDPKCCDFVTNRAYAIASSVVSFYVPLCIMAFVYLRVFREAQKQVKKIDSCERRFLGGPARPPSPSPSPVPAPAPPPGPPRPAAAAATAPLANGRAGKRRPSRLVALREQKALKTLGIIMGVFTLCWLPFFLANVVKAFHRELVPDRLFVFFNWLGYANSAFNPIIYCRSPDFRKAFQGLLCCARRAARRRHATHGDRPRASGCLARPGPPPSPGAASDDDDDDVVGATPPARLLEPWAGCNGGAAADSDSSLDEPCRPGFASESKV

Series 1
Target: Centromere-binding protein 1, full length, His-tagged (CBF1, Saccharomyces cerevisiae, UniProt P17106, residues 1-351)
Chain of UniProt P17106 (whole entry, looked up): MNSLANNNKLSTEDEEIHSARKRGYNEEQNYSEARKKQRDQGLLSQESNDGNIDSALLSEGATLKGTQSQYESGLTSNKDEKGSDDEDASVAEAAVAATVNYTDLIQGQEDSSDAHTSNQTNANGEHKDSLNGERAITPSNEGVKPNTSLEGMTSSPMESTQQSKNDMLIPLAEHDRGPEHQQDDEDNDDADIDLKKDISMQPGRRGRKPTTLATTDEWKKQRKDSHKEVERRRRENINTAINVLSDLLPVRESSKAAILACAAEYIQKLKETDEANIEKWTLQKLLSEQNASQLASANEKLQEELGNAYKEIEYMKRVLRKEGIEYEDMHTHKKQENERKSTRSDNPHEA
Method: competition protein-binding microarray
Form: double-stranded DNA, one strand shown
Matrix: in vitro
Concentration: 2 µM
Notes: whole 60-bp probe, lowest competitor level
With: Pho4 competitor, 0.05 µM
Reading: higher = stronger binding
All sequences stand within: … GTCTTGATTCGCTTGACGCTGCTG
| Sequence | fluorescence intensity |
| --- | --- |
| GCCAGAGAGTTATTTCACGTGCTTTGTTCGGCCCGC | 815 a.u. |
| TCGCGCACTACTTTTTTCGTGGGTAACTTAGGTGAA | 81.5 a.u. |
| CTAACGAAGGTTTGAAAAGTGGGTGACAAGCCAAGT | 72.7 a.u. |
| CATACCCAACCTTGCAAAGTGGGTGAAGATATTTGT | 64.5 a.u. |
| CTAGATGTCAAAAGGCTTGTGACAGTATGTGGAGAA | 69.2 a.u. |
| CATACCCAACCTTGAGGGGTGGGTGAAGATATTTGT | 68.2 a.u. |
| GTAGTTCAAATCACCAGCGTGCTAACAATGTTCAAG | 90.7 a.u. |
| TGCGCAACAACTTGCAACGTGGGTGTATGTCTAGAA | 83.2 a.u. |

Series 2
Target: CCND2, cyclin fold, Cln2 fusion (human)
Method: yeast growth competition, sequencing
Matrix: yeast
Notes: weak parent motif
Reference: not given
Reading: higher = stronger binding
Starting sequence: viral docking peptide; KGVKRKLFAEDSS
| Substitution | normalised enrichment score |
| --- | --- |
| D11I | -0.0634 |
| K4Q | 0.252 |
| R5Y | -0.0898 |
| F8S | -0.151 |
| K6T | 0.219 |
| K4P | -0.181 |
| L7T | 0.0555 |
| K6G | 0.351 |
| A9D | 0.292 |
| R5W | -0.498 |
| E10S | -0.138 |
| F8D | -0.114 |
| E10K | -0.592 |
| K4T | -0.23 |
| K4V | -0.422 |
| S12W | 0.233 |
| R5A | 0.109 |
| D11E | 0.503 |
| S12A | 0.335 |
| K6Y | -0.358 |
| G2H | 0.321 |
| A9L | 0.0415 |
| F8E | 0.411 |
| L7M | 0.202 |
| K6N | -0.0327 |

Series 3
Substance: H1-4 (Homo sapiens, UniProt P10412)
Method: cross-linking MS
Notes: hits only
| partner | interaction screen |
| --- | --- |
| H3-5 (Homo sapiens, UniProt Q6NXT2) | cross-linked |
| H2AC14 (Homo sapiens, UniProt Q99878) | cross-linked |
| H2AC20 (Homo sapiens, UniProt Q16777) | cross-linked |
| HMGA1 (Homo sapiens, UniProt P17096) | cross-linked |

Series 4
Target: Hepatocyte nuclear factor 3-beta, forkhead domain (FOXA2, Homo sapiens, UniProt Q9Y261, residues 142-269)
Method: protein-binding microarray
Form: double-stranded DNA, one strand shown
Matrix: in vitro
Concentration: not given
Notes: k-mer, scored over probes, only values ≥0.25
Reading: higher = stronger binding
Target sequence (chain): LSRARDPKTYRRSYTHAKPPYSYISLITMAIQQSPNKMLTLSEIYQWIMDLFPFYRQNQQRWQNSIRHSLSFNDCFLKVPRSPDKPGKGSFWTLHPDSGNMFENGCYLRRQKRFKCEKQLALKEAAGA
| Sequence | E-score |
| --- | --- |
| TATACAGA | 0.325 |
| ATATCCCG | 0.259 |
| ACTTTATA | 0.261 |
| ATAAACGG | 0.279 |
| ATTGATGG | 0.297 |
| ATATATTG | 0.27 |
| AAACACAC | 0.33 |
| ATAACATG | 0.298 |

Series 5
Target: UDP-N-acetylglucosamine--peptide N-acetylglucosaminyltransferase 110 kDa subunit (OGT, Homo sapiens, UniProt O15294)
Chain of UniProt O15294 (whole entry, looked up): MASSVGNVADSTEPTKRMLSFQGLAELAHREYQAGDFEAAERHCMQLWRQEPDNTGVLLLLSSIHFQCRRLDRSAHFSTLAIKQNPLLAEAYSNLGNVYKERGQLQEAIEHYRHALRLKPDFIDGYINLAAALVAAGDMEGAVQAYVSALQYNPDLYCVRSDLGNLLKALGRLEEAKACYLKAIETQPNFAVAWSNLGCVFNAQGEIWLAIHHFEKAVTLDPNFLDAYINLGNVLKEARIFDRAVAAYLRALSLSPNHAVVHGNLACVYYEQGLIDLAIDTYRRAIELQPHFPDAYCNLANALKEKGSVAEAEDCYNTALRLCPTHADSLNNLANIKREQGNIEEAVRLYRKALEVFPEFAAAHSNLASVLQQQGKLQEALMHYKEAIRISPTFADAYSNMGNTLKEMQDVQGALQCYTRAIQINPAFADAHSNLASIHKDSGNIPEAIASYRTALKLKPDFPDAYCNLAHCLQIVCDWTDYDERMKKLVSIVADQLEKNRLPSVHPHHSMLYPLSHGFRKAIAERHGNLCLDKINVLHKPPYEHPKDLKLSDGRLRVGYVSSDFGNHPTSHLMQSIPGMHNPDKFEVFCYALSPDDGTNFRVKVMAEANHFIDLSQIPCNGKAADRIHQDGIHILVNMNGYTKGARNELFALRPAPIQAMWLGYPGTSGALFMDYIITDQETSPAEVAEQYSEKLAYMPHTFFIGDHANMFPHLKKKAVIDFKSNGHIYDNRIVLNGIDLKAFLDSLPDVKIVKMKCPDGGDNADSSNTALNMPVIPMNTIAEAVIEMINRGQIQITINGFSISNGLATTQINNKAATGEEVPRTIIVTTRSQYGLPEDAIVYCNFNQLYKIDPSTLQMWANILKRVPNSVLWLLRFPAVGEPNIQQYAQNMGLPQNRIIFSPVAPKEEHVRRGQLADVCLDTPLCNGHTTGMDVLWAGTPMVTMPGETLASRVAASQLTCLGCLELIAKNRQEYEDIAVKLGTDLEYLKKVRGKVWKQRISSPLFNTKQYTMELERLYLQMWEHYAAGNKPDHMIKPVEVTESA
Observed: binding
Method: phage display NGS
Form: peptide
Concentration: concentration not given
Notes: normalized abundance
Reference: input library
| Molecule | enrichment fold change |
| --- | --- |
| HWTSMAFMHHWEPE | 6.31 |
| DHDHLWQRLHDGHTS | 7.01 |
| VGYHGTPYHKHGAHI | 6.53 |
| TWRVHYPFHTHNYEI | 13 |

Further values, each from its own experiment
| Compound | target | mode | measurement | result |
| --- | --- | --- | --- | --- |
| ClC1=C(Cl)[C@]2(Cl)[C@@H]3[C@@H]4C[C@@H]([C@H]5O[C@@H]45)[C@@H]3[C@@]1(Cl)C2(Cl)Cl | Beta-1 adrenergic receptor (ADRB1, Homo sapiens, UniProt P08588) | agonist | EC50 | 39.8 µM |

Repeated from above (series 2):
| Substitution | normalised enrichment score |
| --- | --- |
| K4T | -0.23 |
| K4V | -0.422 |
| S12W | 0.233 |
